# Published values from different studies.
# Lines come from different studies, so protocols differ. Values joined by “and” are separate records of one study, mostly repeats; a detail may differ. Numbers after ± are the reported error.
SMILES,target or system,assay,system,conditions,scale,measurement,result
Nc1ccn([C@@H]2O[C@H](CO)[C@@H](O)C2(F)F)c(=O)n1,influenza A virus H1N1,"viral replication, NP ELISA",MDCK,,,IC90,1.32 ± 0.44 µM
C=CCNCCc1c[nH]c2cccc(O)c12.C=CCNCCc1c[nH]c2cccc(O)c12.O=C(O)/C=C/C(=O)O,,,C57BL/6J mice,"subcutaneous, 1 mg/kg",,head twitch count,36 ± 2.3
NC12CC3CC(CC(C3)C1)C2,influenza A virus H1N1,"viral cytopathic effect, MTS",MDCK,,,EC50,2.1 µM
CS(=O)(=O)Nc1ncn(-c2cc(F)c(COc3ccc(OS(=O)(=O)F)cc3)c(F)c2)n1,Mycobacterium tuberculosis,,"drug-resistant clinical isolate, lineage 4",,,MIC,0.02 µM
CC(C)(C)NCCc1c[nH]c2cccc(O)c12.CC(C)(C)NCCc1c[nH]c2cccc(O)c12.O=C(O)/C=C/C(=O)O,,,C57BL/6J mice,"subcutaneous, 1 mg/kg",,head twitch count,6.8 ± 1.6
CC[C@H](C)[C@H](NC(=O)[C@H](C)NC(=O)[C@H](CCCCN)NC(=O)[C@H](CC(C)C)NC(=O)[C@H](C)NC(=O)[C@@H](NC(=O)[C@H](Cc1c[nH]cn1)NC(=O)[C@H](CC(C)C)NC(=O)[C@@H](NC(=O)[C@@H](NC(=O)[C@H](CCCCN)NC(=O)[C@H](C)NC(=O)[C@H](C)NC(=O)[C@H](CO)NC(=O)[C@H](CCCCN)NC(=O)[C@H](Cc1ccccc1)NC(=O)[C@@H](NC(=O)[C@H](CCCCN)NC(=O)[C@H](CC(C)C)NC(=O)[C@H](Cc1ccccc1)NC(=O)[C@H](CO)NC(=O)[C@H](CCCCN)NC(=O)[C@H](Cc1c[nH]c2ccccc12)NC(=O)[C@H](CCCCN)NC(C)=O)[C@@H](C)O)[C@@H](C)O)C(C)C)[C@@H](C)O)C(=O)N[C@@H](CO)C(=O)N[C@@H](CO)C(N)=O,Klebsiella pneumoniae,,,80 strains,,MBC90,64 µg/mL
Oc1c(Br)cc(Br)cc1-c1[nH]c(Br)c(Br)c1Br,Vibrio cholerae,,El Tor,,,MIC,8 µM
CCCCCCCCCCCCCCCC[N+](C)(C)CCCCCCCCCCCC[N+](C)(C)CCCCCCCCCCCCCCCC.[Br-].[Br-],influenza A virus A/PR/8/34 (H1N1),,,"concentration not given, pre-treatment",,HA titre reduction,1.5 ± 0.5 log units
[Ca+2],Halyomorpha halys,"inward current, inhibitor, whole-cell patch clamp",,"1 mM, Nan-Iav W701A",,inhibition,8.57%
[H]/N=C(/N)N[C@H]1[C@H](O)[C@@H](O)[C@H](O[C@@H]2O[C@@H](C)[C@](O)(C=O)[C@H]2O[C@@H]2O[C@@H](CO)[C@H](O)[C@@H](O)[C@@H]2NC)[C@@H](N/C(N)=N\[H])[C@@H]1O,Mycobacterium ulcerans,,ATCC 35840,,,MIC,0.1 to 0.4 µg/mL
CCCCCCCCCCCC[N+](C)(C)CCCCCCCCCC[N+](C)(C)CCCCCCCCCCCC.[Br-].[Br-],influenza A virus A/PR/8/34 (H1N1),,,"concentration not given, post-treatment",,protection,53.7 ± 5.7%
O=c1ccn([C@@H]2O[C@](F)(CO)[C@@H](O)[C@H]2O)c(=O)[nH]1,human respiratory syncytial virus,,recombinant reporter virus,"concentration not given, scale 0 to 100, with: adenosine 300 µM",,normalized viral replication,0
N#C[C@@]1(n2ccc(N)nc2=O)O[C@H](CO)[C@@H](O)[C@H]1O,influenza B virus,"viral replication, cell-based",,,,EC50,> 40 µM
CCCCCCCCCCCCCCCCCC[N+](C)(C)Cc1ccc(C[N+](C)(C)CCCCCCCCCCCCCCCCCC)cc1.[Br-].[Br-],influenza A virus A/PR/8/34 (H1N1),,,"concentration not given, post-treatment",,protection,62.6 ± 6.9%
Cn1c(=O)ccc2ccc(F)c(CCNC[C@H]3CN(c4cnc5c(n4)NC(=O)CO5)C(=O)O3)c21,Burkholderia gladioli,,,,,MIC90,2 µg/mL
O=c1[nH]c(=O)n([C@H]2C[C@H](O)[C@@H](CO)O2)cc1F,influenza A virus H1N1,"viral replication, NP ELISA",MDCK,,,IC90,86 ± 21.4 µM
O=C(O)c1cn(C2CC2)c2cc(N3CCNCC3)c(F)cc2c1=O,Vibrio cholerae,,El Tor,,,MIC,0.06 µM
CCCCCCCCCCCCCCCC[N+](C)(C)Cc1ccc(C[N+](C)(C)CCCCCCCCCCCCCCCC)cc1.[Br-].[Br-],influenza A virus A/PR/8/34 (H1N1),,,"concentration not given, post-treatment",,HA titre reduction,2.5 ± 0.5 log units
O=c1[nH]cc(F)c(=O)[nH]1,influenza A virus H1N1,"viral replication, NP ELISA",MDCK,,,IC90,147 ± 60.4 µM
C[C@H]1O[C@@H](O[C@H]2CC[C@@]3(C)[C@@H](CC[C@]4(C)[C@@H]3C=C[C@]35OC[C@@]6(CCC(C)(C)C[C@H]63)[C@@H](O)C[C@]54C)[C@]2(C)CO)[C@H](O)[C@@H](O[C@@H]2O[C@H](CO)[C@@H](O)[C@H](O)[C@H]2O)[C@H]1O,,,"mouse, chronic-plus-binge ethanol, hepatic SIRT1 knockdown, liver","dose not given, high dose",,hepatic total cholesterol,0.25 mmol/g protein and 0.168 mmol/g protein and 0.204 mmol/g protein and 0.107 mmol/g protein and 0.246 mmol/g protein and 0.238 mmol/g protein
COc1cc(NC(=O)Cn2ccc3cc(F)c(-c4cnn(C)c4)cc32)cc(OC)c1OC,Plasmodium falciparum,,Dd2 PfATP4 G358S,72 h,reference: mutant over parental,EC50 fold shift,10 fold
O=C1c2c(O)c(=O)ccn2N([C@@H]2c3ccccc3SCc3c2ccc(F)c3F)[C@@H]2COCCN12,influenza A virus H1N1,,"A/WSN/33, BALB/c mice, lung","subcutaneous, 2 mg/kg every 6 h, 24 h",,lung virus titre,3.67 log10 TCID50/mL and 2 log10 TCID50/mL and 1.5 log10 TCID50/mL and 2.33 log10 TCID50/mL and 3 log10 TCID50/mL
NC(=O)c1ncn([C@@H]2O[C@H](CO)[C@@H](O)[C@H]2O)n1,influenza A virus H1N1,"viral cytopathic effect, MTS",MDCK,,,EC50,8.1 µM
COc1c(CCC[P+](c2ccccc2)(c2ccccc2)c2ccccc2)cc2c(c1OC)OCO2.[I-],NCI-H322M,SRB,,,,GI50,-5.5 log M
Nc1ncn([C@@H]2O[C@H](CO)[C@@H](O)[C@H]2O)c(=O)n1,influenza A virus H1N1,"viral replication, NP ELISA",MDCK,,,IC90,9.24 ± 0.28 µM
CC(N)C12CC3CC(CC(C3)C1)C2 (centres unmarked),influenza A virus H1N1,"viral cytopathic effect, MTS",MDCK,,,EC50,20.5 µM
C[C@@H](O)[C@@H](CO)NC(=O)[C@@H](CCCNC(=N)N)NC(=O)[C@@H]1CCCN1C(=O)[C@@H]1CSSC[C@H](NC(=O)[C@H](Cc2ccccc2)NC(=O)CN2CCN(CC(=O)O)CCN(CC(=O)O)CCN(CC(=O)O)CC2)C(=O)N[C@@H](Cc2ccc(O)cc2)C(=O)N[C@@H](Cc2ccccc2)C(=O)N[C@@H](CCC(N)=O)C(=O)N[C@@H](CC(N)=O)C(=O)N1 [gallium-68 labelled],,,"healthy Wistar rat, spleen","intravenous, 8 MBq, 60 min, individual animals",,tissue uptake,0.24 %ID/g
CCCCCCCCCCCCCCCC[N+](C)(C)CCCCCCCCCC[N+](C)(C)CCCCCCCCCCCCCCCC.[Br-].[Br-],influenza A virus A/PR/8/34 (H1N1),,,"concentration not given, pre-treatment",,protection,55.4 ± 11.4%
COc1cc(CCC[P+](c2ccccc2)(c2ccccc2)c2ccccc2)c(OC)c2c1OCO2.[I-],NCI-H322M,SRB,,,,LC50,> -4 log M
CC[C@H](C)[C@@H]1NC(=O)[C@@H]2CCCN2C(=O)[C@H](CC(C)C)NC(=O)[C@H](CC(C)C)NC(=O)CNC(=O)[C@@H](NC(=O)[C@@H](NC(=O)[C@H](CC(=O)O)NC(=O)CNC(=O)[C@@H](NC(=O)[C@H](C)NC(=O)CNC(=O)[C@H](CCCCN)NC(=O)[C@H](CC(C)C)NC(=O)[C@H](CC(C)C)NC(=O)[C@H](CCCCN)NC(=O)CNC(=O)[C@@H](NC(=O)[C@@H](N)CC(C)C)C(C)C)C(C)C)C(C)C)CSSC[C@@H](C(=O)O)NC1=O,,"RNA-seq, item: Fcgr4 mRNA","mouse traumatic brain injury, frontal cortex and hippocampus",dose not given,reference: TBI plus compound vs TBI,log2 fold change,-2.46
CCCCCCCCCCCC[N+](C)(C)CCCNCCC[N+](C)(C)CCCCCCCCCCCC.[Br-].[Br-],influenza A virus A/PR/8/34 (H1N1),,,"concentration not given, co-treatment",,HA titre reduction,5 ± 1 log units
CCOC(=O)C1=C[C@@H](OC(CC)CC)[C@H](NC(C)=O)[C@@H](N)C1,influenza A virus H1N1,,"rat, plasma of treated rats",30 mg/kg,reference: water-treated rats,plaque reduction,61.6%
OC(Cn1cncn1)(Cn1cncn1)c1ccc(F)cc1F,Fusarium oxysporum,broth microdilution,LM 5634,50% inhibition endpoint,,MIC,32 µg/mL
CC(=O)N[C@H]1[C@H]([C@H](O)[C@H](O)CO)OC(C(=O)O)=C[C@@H]1N=C(N)N,influenza A virus H1N1,"viral cytopathic effect, MTS",MDCK,,,EC50,0.8 µM
NC[C@H]1O[C@H](O[C@H]2[C@H](O)[C@@H](O[C@H]3O[C@H](CO)[C@@H](O)[C@H](N)[C@H]3O)[C@H](N)C[C@@H]2N)[C@H](O)[C@@H](O)[C@@H]1O,Vibrio cholerae,,,"concentration not given, 0.2 mg/mL",,growth inhibition,86%

# For quick reference, copied from above:
SMILES,target or system,assay,system,conditions,scale,measurement,result
O=C(O)c1cn(C2CC2)c2cc(N3CCNCC3)c(F)cc2c1=O,Vibrio cholerae,,El Tor,,,MIC,0.06 µM
CCCCCCCCCCCCCCCC[N+](C)(C)Cc1ccc(C[N+](C)(C)CCCCCCCCCCCCCCCC)cc1.[Br-].[Br-],influenza A virus A/PR/8/34 (H1N1),,,"concentration not given, post-treatment",,HA titre reduction,2.5 ± 0.5 log units
